Experimental data of several laboratories.
Each line is one published result; not all experiments were run side by side. Several values in a cell are separate wells, animals, samples, runs or records. ± gives the spread as reported.

| Structure (SMILES) | cell line | test | setting | endpoint | result |
| --- | --- | --- | --- | --- | --- |
| COC(=O)C1=CO[C@@H](OC(C)=O)[C@@H]2C(Cn3cc(CCO[Si](c4ccccc4)(c4ccccc4)C(C)(C)C)nn3)=CC[C@H]12 | SK-N-SH | neuroprotection, MTT | 0.075 µM, 24 h, added: 250 µM H2O2 | viability | 49.6 ± 0.6% |
| CC[C@H](C)[C@H](NC(=O)[C@H](CC(N)=O)NC(=O)[C@H](CCCCN)NC(=O)[C@H](Cc1ccccc1)NC(=O)[C@H](Cc1ccccc1)NC(=O)[C@H](Cc1c[nH]cn1)NC(=O)[C@@H](NC(=O)[C@@H](NC(=O)[C@@H]1CCCN1C(=O)[C@@H](N)CC(N)=O)C(C)C)C(C)C)C(=O)N[C@H](C(=O)N[C@H](C(=O)N[C@@H](C)C(=O)O)[C@@H](C)O)C(C)C | T cell clone Ob.1A12 | T cell proliferation, agonist, [3H]thymidine incorporation | 72 h, peptide-pulsed APC, added: EBV-transformed B cells DR2/DQ6 as APC | EC50 | 50 µM |
| COC(=O)C1=CO[C@@H](OC(C)=O)[C@@H]2C(Cn3cc(CCO)nn3)=CC[C@H]12 | SK-N-SH | neuroprotection, MTT | 0.15 µM, 24 h, added: 250 µM H2O2 | viability | 77.1 ± 2.1% |
| CSCC[C@H](NC(=O)[C@@H](NC(=O)[C@H](CCSC)NC(=O)[C@H](Cc1ccc(O)cc1)NC(=O)[C@H](CCCCN)NC(=O)[C@@H](N)Cc1c[nH]c2ccccc12)C(C)C)C(N)=O | human neutrophils | calcium mobilisation, agonist | added: 2.5 mM probenecid | EC50 | 0.0014 µM |
| Cc1cccc(O)c1C(=O)OCC1(O)C(Nc2ccc3c(c2)Cc2ccccc2-3)C(N)C(NC(=O)N(C)C)(C(C)O)C1(C)O (centres unmarked) | SK-OV-3 | cell growth or viability |  | EC50 | 0.145 µM |
| C=CC(=O)Nc1cc(-c2nn(C3CCC(N4CCN(C(C)=O)CC4)CC3)c3ncnc(N)c23)ccc1Oc1ccccc1 (centres unmarked) | OVCAR-8 | cell growth or viability, ATP luminescence | 72 h | EC50 | ≥ 10 µM and > 10 µM |
| Cc1cc2c(C(=O)Cc3ccccc3)c(O)c(O)cc2c(O)c1-c1c(C)cc2c(C(=O)Cc3ccccc3)c(O)c(O)cc2c1O | H1299 | cell viability, ATP luminescence | 72 h | EC50 | 3.5 µM |
| CCCCCCCCC1(CCCCCCCC)c2cc(-c3cc4[n+]5c(c3)-c3cccc[n+]3[Ir-3]536([c]5c(c(C)cc(C)c5-c5cccc[n+]53)-c3cccc[n+]36)[n+]3ccccc3-4)ccc2-c2ccc(-c3cc4[n+]5c(c3)-c3cccc[n+]3[Ir-3]536([c]5c(c(C)cc(C)c5-c5cccc[n+]53)-c3cccc[n+]36)[n+]3ccccc3-4)cc21.F[P-](F)(F)(F)(F)F.F[P-](F)(F)(F)(F)F.F[P-](F)(F)(F)(F)F.F[P-](F)(F)(F)(F)F | SK-MEL-28 | cell viability, resazurin | 16 h before light, visible light 100 J/cm2 | EC50 | 0.17 ± 0.01 µM |
| CC(C)C(C)C=CC(C)C1CCC2C1(C)CCC1C23C=CC2(CC(OC(=O)CCCCC4SCC5NC(=O)NC54)CCC12C)OO3 (centres unmarked) | SUM149 | cell growth or viability, ATP luminescence |  | EC50 | 4 µM |
| CC[C@H](C)[C@H](NC(=O)[C@H](CCCNC(=N)N)NC(=O)[C@H](CCCNC(=N)N)NC(=O)[C@H](CC(C)C)NC(=O)[C@H](CCC(=O)O)NC(=O)[C@H](CCC(N)=O)NC(=O)[C@H](C)NC(=O)[C@@H](NC(=O)[C@H](CNC(=O)CCl)NC(=O)[C@H](CCCNC(=N)N)NC(=O)[C@H](CCCNC(=N)N)NC(=O)[C@@H]1CCCN1C(=O)[C@H](CCCNC(=N)N)NC(=O)[C@H](CCCNC(=N)N)NC(=O)[C@@H]1CCCN1C(=O)[C@H](CCCNC(=N)N)NC(=O)[C@H](CCCNC(=N)N)NC(=O)[C@@H]1CCCN1C(=O)[C@H](CCCNC(=N)N)NC(=O)[C@H](CCCNC(=N)N)NC(=O)[C@@H]1CCCN1C(=O)[C@H](CCCNC(=N)N)NC(=O)[C@H](CCCNC(=N)N)NC(=O)[C@@H]1CCCN1C(C)=O)[C@@H](C)CC)C(=O)NCC(=O)N[C@@H](CC(=O)O)C(=O)N[C@@H](CCC(=O)O)C(=O)N[C@@H](Cc1ccccc1)C(=O)N[C@@H](CC(N)=O)C(=O)N[C@@H](C)C(=O)N[C@@H](Cc1ccc(O)cc1)C(=O)N[C@@H](Cc1ccc(O)cc1)C(=O)N[C@@H](C)C(=O)N[C@@H](CCCNC(=N)N)C(=O)N[C@@H](CCCNC(=N)N)C(N)=O | primary CLL cells | specific induced apoptosis, flow cytometry | 48 h, added: stroma NK-tert cell coculture | EC50 | < 5 µM |
| F[P-](F)(F)(F)(F)F.F[P-](F)(F)(F)(F)F.[Ru+2].c1ccc(-c2ccccn2)nc1.c1ccc(-c2ccccn2)nc1.c1csc(-c2ccc(-c3ccc(-c4cc5cccnc5c5ncccc45)s3)s2)c1 | SK-MEL-28 | cell viability | dark | EC50 | 50 ± 3 µM |
| CCOC(=O)c1ccc(NC(=S)Nc2ccc3c(c2)C(C)(C)CC(C)(C)S3)cc1 | HK-2 | cell growth or viability | 48 h | EC50 | 5.14 µM |
| CC1(C)CC([n+]2cc([NH-])on2)CC(C)(C)N1O | human trabecular meshwork cells | protection from TBHP toxicity, CellTiter | 24 h, added: TBHP 300 µM | EC50 | 0.38 µM |
| F[P-](F)(F)(F)(F)F.F[P-](F)(F)(F)(F)F.[Ru+2].c1ccc(-c2ccccn2)nc1.c1ccc(-c2ccccn2)nc1.c1csc(-c2cc3cccnc3c3ncccc23)c1 | SK-MEL-28 | cell viability, resazurin | 16 h drug-to-light interval, added: visible light 100 J/cm2 | EC50 | 1.4 µM and 1.39 µM |

Excerpt of the above:
| Structure (SMILES) | cell line | test | setting | endpoint | result |
| --- | --- | --- | --- | --- | --- |
| COC(=O)C1=CO[C@@H](OC(C)=O)[C@@H]2C(Cn3cc(CCO)nn3)=CC[C@H]12 | SK-N-SH | neuroprotection, MTT | 0.15 µM, 24 h, added: 250 µM H2O2 | viability | 77.1 ± 2.1% |
| CSCC[C@H](NC(=O)[C@@H](NC(=O)[C@H](CCSC)NC(=O)[C@H](Cc1ccc(O)cc1)NC(=O)[C@H](CCCCN)NC(=O)[C@@H](N)Cc1c[nH]c2ccccc12)C(C)C)C(N)=O | human neutrophils | calcium mobilisation, agonist | added: 2.5 mM probenecid | EC50 | 0.0014 µM |
